Experimental data collected from several papers.
Parts stem from different laboratories: compare values within a part only. Substitutions count along the parent as printed.

Series 1
Target: Sal-like protein 4, full length isoform B (SALL4, Homo sapiens, UniProt Q9UJQ4-2, residues 1-616)
Method: universal PBM
Form: double-stranded DNA, one strand shown
Matrix: in vitro
Concentration: not given
Notes: 8-mer, flanks averaged, mean of replicates
Direction: higher = stronger binding
Endpoint: E-score
Strand = CGCGTCTC; result = -0.154
Strand = CTTTATGC; result = 0.125
Strand = GCTATGAA; result = 0.15
Strand = TACATTGA; result = 0.243
Strand = GCTCGGAA; result = -0.242
Strand = CCCCGATC; result = -0.277
Strand = ATGCCCTC; result = -0.00709
Strand = CGATTCCG; result = -0.135
Strand = TAACTTGA; result = 0.247
Strand = ACGCCAAT; result = 0.109
Strand = AAAACTGA; result = 0.102
Strand = AAGTAATT; result = 0.355
Strand = ATGGGGTC; result = -0.26
Strand = AGCTAGAG; result = -0.0774
Strand = GAACTGAC; result = -0.249
Strand = CAGTTACC; result = -0.0508

Series 2
Target: Histone acetyltransferase KAT6A, winged helix 1, GST fusion (KAT6A, Homo sapiens, UniProt Q92794, residues 1-85)
Method: protein binding microarray
Form: double-stranded DNA, one strand shown
Matrix: in vitro
Concentration: not given
Notes: 8-mer, flanks averaged, mean of 2 arrays, mostly near background
Relative to: not given
Direction: higher = stronger binding
Endpoint: E-score
Target sequence (chain): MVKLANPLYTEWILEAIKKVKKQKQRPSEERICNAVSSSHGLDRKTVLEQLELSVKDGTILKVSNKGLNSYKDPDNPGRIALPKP
Strand = AGTCCTAC; result = 0.0378
Strand = CCGACGAA; result = 0.0977
Strand = CTAGACTA; result = -0.00539
Strand = CAGGCGCA; result = 0.159
Strand = AGCTGAAT; result = -0.183
Strand = ATGGACAT; result = -0.177
Strand = AGGGCCAG; result = -0.192
Strand = ACCTCGTG; result = -0.038
Strand = AAAGCTAA; result = -0.115
Strand = CACGCGAC; result = 0.151
Strand = ATGAACTC; result = -0.101
Strand = CGGTCAAA; result = 0.124
Strand = AATTCAAA; result = -0.254
Strand = CTTCAACA; result = -0.142
Strand = GATAGTTA; result = -0.0962
Strand = CGTACTCA; result = 0.0522
Strand = ATGTGCGA; result = 0.11
Strand = GGAGAGTA; result = -0.0884
Strand = GTAGAATA; result = -0.144
Strand = GCTTTGTA; result = -0.063

Series 3
Target: PABPC1L2, full length, GST fusion (mouse, UniProt A0ABA7IW68)
Method: RNAcompete
Form: RNA
Matrix: in vitro
Concentration: 20 nM
Notes: 7-mer, probes averaged, single round
Relative to: mean of 7-mers
Direction: higher = stronger binding
Endpoint: 7-mer Z-score
Target sequence (chain): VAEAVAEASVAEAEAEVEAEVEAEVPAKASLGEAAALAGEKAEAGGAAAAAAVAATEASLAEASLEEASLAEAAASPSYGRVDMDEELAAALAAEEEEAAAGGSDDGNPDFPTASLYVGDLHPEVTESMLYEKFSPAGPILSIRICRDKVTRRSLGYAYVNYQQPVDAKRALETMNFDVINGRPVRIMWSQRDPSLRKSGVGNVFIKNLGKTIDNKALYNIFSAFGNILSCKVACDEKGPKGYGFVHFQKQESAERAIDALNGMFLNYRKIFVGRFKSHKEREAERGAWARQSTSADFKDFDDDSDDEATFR
Strand = CCUAUGC; result = -0.215
Strand = AUUCGGA; result = -0.0554
Strand = AUGACGA; result = -0.0101
Strand = GCGCACU; result = -0.249
Strand = AAUGCCA; result = 0.157
Strand = CUCGAUG; result = -0.144
Strand = ACAGCGU; result = -0.168
Strand = GGGUGAG; result = -0.0536
Strand = AUCCCGG; result = -0.137
Strand = AUACGGA; result = 0.0696
Strand = UGGUAAU; result = -0.135
Strand = UCUAGUG; result = -0.329
Strand = CGUCCCC; result = -0.429
Strand = ACUGAGA; result = 0.164
Strand = GUUCAAG; result = -0.0736
Strand = CGAAACA; result = 0.843
Strand = CAAUUAC; result = -0.184
Strand = GCUGGCC; result = -0.162
Strand = GGAAGUA; result = -0.124
Strand = ACCCGUC; result = -0.396
Strand = UCUCAAC; result = -0.371
Strand = CGCAAUA; result = -0.11

Series 4
Target: ABI1, truncated, D143A, DHFR fusion (Arabidopsis thaliana)
Method: DHFR PCA, deep sequencing
Matrix: yeast
Notes: methotrexate growth selection, single substitutions
With: (+)-ABA 0 µM
Relative to: wild-type fitted maximum
Direction: higher = stronger binding
Endpoint: relative binding score
Parent: PYL1, truncated, DHFR fusion (Arabidopsis thaliana); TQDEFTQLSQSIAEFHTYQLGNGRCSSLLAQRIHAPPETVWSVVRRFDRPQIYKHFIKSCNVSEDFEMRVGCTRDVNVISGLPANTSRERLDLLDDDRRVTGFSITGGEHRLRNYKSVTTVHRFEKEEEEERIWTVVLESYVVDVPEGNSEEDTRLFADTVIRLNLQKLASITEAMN
Variant = D144E; result = 2.43%
Variant = E131D; result = 42.6%
Variant = E67T; result = 20.2%
Variant = E131T; result = 43.7%
Variant = I162V; result = 38.3%
Variant = Y115R; result = 2.02%
Variant = L20W; result = 2.02%
Variant = L138D; result = 0.984%
Variant = T106E; result = 8.49%
Variant = G102P; result = -0.935%
Variant = F103S; result = 0.74%
Variant = I105R; result = 1.61%
Variant = D3M; result = 31.8%
Variant = F15H; result = 15.8%
Variant = F5S; result = 3.29%
Variant = R32K; result = 28.1%
Variant = F103W; result = -3.37%
Variant = S59Q; result = 5.28%
Variant = N165M; result = 8.69%
Variant = T173W; result = -6.18%
Variant = P83D; result = 4.42%
Variant = V78S; result = 13.7%
Variant = S80I; result = 22.1%

Series 5
Target: RNA binding protein fox-1 homolog 2, RRM domain, GST-SBP tag (RBFOX2, Homo sapiens, UniProt O43251-10, residues 100-194)
Method: RNA Bind-n-Seq
Form: RNA
Matrix: in vitro
Concentration: 365 nM
Notes: natural RNA segment, single round, ends assumed
Relative to: no-protein control
Direction: higher = stronger binding
Endpoint: RBNS enrichment (R)
Constant ends, left off below: GGGAGUUCUACAGUCCGACGAUC … UGGAAUUCUCGGGUGCCAA
Strand = AAGCUCUGGGGACUGAGCUCCAUGCUCCAACCCCACCCUCUUCUGACCUUUGUUCUCCAGACCUGACCCAGGUAGGCAAGGGUACCCUCCCAGUCUCACCUACCAUACUG; result = 0.426
Strand = GAAGUUGCCUCCCCUGGUGUUCCACCAUCCACAGUUUCUGUAACAUUUACCCAGUGGACAUGAGCGCUGCUGAAUUUCAUAUAAGGGUCUUCACAGAAAAUACAUGUUCC; result = 0.377
Strand = UUGAUUUACAGCAAGUAGAUAAAUAUUUGACUUGCAUGAAGAGAAGCAAUUUUGGGGAAGGGUUUGAAUUGUUUUCUUUAAAGAUGUAAUGUCCCUUUCAGAGACAGCUG; result = 0.917
Strand = CUCUAUCCUUUUGAGCUCUUCUGUCUUUUUAUAGUAAGCUUCCUCCACCUGUGUUGCUUUUGUAACUUGAUAUUUAUGCAGGGUUUUGUAGUUUUUAUUAUGUAGUGACU; result = 0.549
Strand = AAGGUUGAAAUUUAGCCCAGCUCUAGGCAUUUUACAAAUUAUUUUAAGAACAGUCACUCUUGAUUGUUUUACUUUUUAUUUUUAAAUUAAAGAUUGGGAAUGCGUGUGAG; result = 0.701
Strand = UGCCCAGCCCUGAGGGCAGGGAAGGUCAACCCACCUGCCCAUCUGUGCUGAGGCAUGUUCCUGCCUACCAUCCUCCUCCCUCCCCGGCUCUCCUCCCAGCAUCACACCAG; result = 0.693
Strand = UUAUAGGAAAAAGAAGAUUCAGAGAAACAAAGGAAUGUAACCUUAUUGAUUACAUUUUUGGUGAUCACCGAGAAUUUUUUGUACUAUAUUUUAAAAAAUGUAUUCUACUG; result = 0.495
Strand = AGAGUCUCCUUUUCCCAUCCUUGGUGCAGACUGUGCCUGCCUGGACUCCGUAGAAAGCACUGGAUUUUGUGACAUGUAUAUUAAAAACAGGGCAUUUCAAAGUAAUUUUG; result = 0.881
Strand = CUGAAAGAAUCCAGAGGUUGGAGUGCCAAUAGAAAAUGAAAACAAAUGCCUUGUACUACAGGCAGCCUCUGAAGGUGACCACAUAACUGUCUUCACUGUGACCAAUCGGA; result = 0.557
Strand = UGUUUGUGCGUCCUUCCUCCCAGCCGGUUCCCACCCUCCUAAGGGUUAUGCCAGUGGAUCUCACGCCUCUGUGCAUCACCUAUCUUUGGUUUGUGAAGGCAGCAGUUAAG; result = 0.439
Strand = UGCACUUAUGAACAAGGAACCUUAUUUUCAAUUUCUGUGUAAUUUUGCAAGGCUGUACAAUGUGCUGAUGCAAGCCUUUUUCAGUUCAAGAGAAUAAAUGUUUACAAAUG; result = 0.704
Strand = GUUCUUUUUGCAUUUAAUGCCCAUCACUAUCCUCAUCCCAAAUAAAAUCCAUUCAUACUAGUGGACAUCAUUUCUAAGUUUCCUUGCUACUGUUACACCCUUUGAACGGA; result = 0.854

Series 6
Target: Interferon regulatory factor 3, full length, phosphomimetic (IRF3, Homo sapiens, UniProt Q14653, residues 1-427, S386D/S396D/S398D/S402D/T404D/S405D)
Chain of UniProt Q14653 (whole entry, unmodified, looked up): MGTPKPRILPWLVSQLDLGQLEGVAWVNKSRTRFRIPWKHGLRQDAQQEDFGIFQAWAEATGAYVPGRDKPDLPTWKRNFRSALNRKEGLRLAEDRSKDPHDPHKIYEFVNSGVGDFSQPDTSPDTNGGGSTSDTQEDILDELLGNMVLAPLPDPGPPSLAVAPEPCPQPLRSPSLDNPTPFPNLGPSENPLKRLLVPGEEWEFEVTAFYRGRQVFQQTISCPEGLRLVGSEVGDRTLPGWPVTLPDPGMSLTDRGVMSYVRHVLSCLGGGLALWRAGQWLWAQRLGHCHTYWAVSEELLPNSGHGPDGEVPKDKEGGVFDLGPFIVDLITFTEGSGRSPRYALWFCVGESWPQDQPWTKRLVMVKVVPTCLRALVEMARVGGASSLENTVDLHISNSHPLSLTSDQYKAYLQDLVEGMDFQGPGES
Method: protein-binding microarray
Form: double-stranded DNA, one strand shown
Matrix: in vitro
Concentration: 2540 nM top
Notes: 60-bp whole probe
With: salmon DNA 0.4 mg/ml
Relative to: random background probes
Direction: higher = stronger binding
Endpoint: fitted relative affinity
Constant ends, left off below: GCCTAGCAC … GTCTTGATTCGCTTGACGCTGCTG
Strand = GACGGTTTCGGTTCCGGCACGTGCTAG; result = 10.3 z-score
Strand = TTAGGTTACGGGTTTCGGTTAGTGCTA; result = 2.8 z-score
Strand = TCAGATATCTTTTTCCTACTGTGCTAG; result = 1.79 z-score
Strand = GGCGATCTCAGACTGGAGACGTGCTAG; result = -0.233 z-score
Strand = GACGATTTCGGGACCGGAGACGTGCTA; result = 1.76 z-score
Strand = TCATCTATTGCTTTCTCACTGTGCTAG; result = 0.939 z-score
Strand = AATTAATAACTCGTAGGATCGTGCTAG; result = 0.0496 z-score
Strand = GTGTTTTCACTTTTCCTACAGTGCTAG; result = 4.37 z-score
Strand = TTAGGACTAGGTATCGGTTAGTGCTAG; result = 1.3 z-score
Strand = TTAGATATCAGTATCTATTAGTGCTAG; result = 1.27 z-score
Strand = ATAAACTTAGTTTTCAATTTGTGCTAG; result = 2.25 z-score
Strand = TCAGATATCAGACTGGATTAGTGCTAG; result = 0.611 z-score
Strand = TCAACTCTTGCTTTTTAACTGTGCTAG; result = 0.52 z-score
Strand = GACGGTTTCGGGTATCGCGACGTGCTA; result = 4.27 z-score
Strand = GATGGACTGGGTCTCGGGACGTGCTAG; result = -0.948 z-score
Strand = GACGGTTTCCGTATCCTGACGTGCTAG; result = 6.17 z-score
Strand = CGGGCTTTCCCGTCCAGGGCGTGCTAG; result = 0.0167 z-score
Strand = CACGGTTTCGGACTGGGGACGTGCTAG; result = 3.95 z-score
Strand = TTAAGACTGGACTATCGGTTAGTGCTA; result = -0.335 z-score

Some of these lines once more (series 3):
Strand = CUCGAUG; result = -0.144
Strand = ACAGCGU; result = -0.168
Strand = GGGUGAG; result = -0.0536
Strand = AUCCCGG; result = -0.137
Strand = AUACGGA; result = 0.0696
Strand = UGGUAAU; result = -0.135
Strand = UCUAGUG; result = -0.329
Strand = CGUCCCC; result = -0.429
Strand = ACUGAGA; result = 0.164
Strand = GUUCAAG; result = -0.0736
Strand = CGAAACA; result = 0.843
Strand = CAAUUAC; result = -0.184
Strand = GCUGGCC; result = -0.162
Strand = GGAAGUA; result = -0.124
Strand = ACCCGUC; result = -0.396
